Experimental data gathered from unrelated publications.
Compare with care: the assays were run in different laboratories. ± marks the error that the study gave.
Cell line: MDA-MB-231

`C#CCOCC1=C(C(=O)OCC)C(c2cccc(Cl)c2)N2C=CSC2=N1` (stereo not shown) gave an IC50 of 52.7 µM (cell growth or viability, MTT).
For `COc1c(C)c(O)c(C(=O)C=Cc2ccccc2)c(OC)c1C`, the IC50 was 26.2 µM (cell growth or viability, SRB; 72 h).
For `CCCCCCCCCCCCCCCOC(=O)/C=C/c1cccc(O)c1`, the IC50 was 1.9 ± 0.1 µg/mL (cell viability, MTT; 48 h, serum-free medium).
For `O=C1CS/C(=N\N=C2/C(=O)N(CCn3ncc4c(=O)[nH]cnc43)c3ccc(Cl)cc32)N1`, the IC50 was 51.3 µM (cell growth or viability, SRB; 72 h).
`CN[C@@H](C)C(=O)N[C@H]1CN(C(=O)Cc2ccccc2)CC[C@H]2CC[C@@H](C(=O)NCc3ccccc3)N2C1=O` has an IC50 of 0.049 µM (cell growth or viability; 96 h).
With `CC(C)c1cccc(C(C)C)c1-n1c2c([n+](-c3c(C(C)C)cccc3C(C)C)[c]1[Au-][Cl])-c1cccc3cccc-2c13` the IC50 was 33 µM (cell growth or viability, MTT; 72 h).
`O=[C]=[Re-2]1(=[C]=O)(=[C]=O)([O]S(=O)(=O)c2ccc3ccccc3c2)[n+]2ccc(-c3ccccc3)c3ccc4c(-c5ccccc5)cc[n+]1c4c32` gave an IC50 of 1.08 µM (cell growth or viability, resazurin; 72 h).
The IC50 of `Cc1cc(C)c(N=[C](NCc2cccc(N)c2)[AuH][Cl])c(C)c1` is reported as over 100 µM (cell growth or viability).
`CN[C@@H](C)C(=O)N[C@H]1CN(C(=O)Cc2ccccc2)CC[C@H]2CC[C@@H](C(=O)NCc3cccc(C(F)(F)F)c3)N2C1=O` has an IC50 of 0.224 µM (cell growth or viability; 96 h).
`COc1cc(-c2coc3cc(O)cc(O)c3c2=O)ccc1O` has an IC50 of over 100 µM (cell growth or viability, MTT; 24 h).
The IC50 of `Nc1cccc[n+]1Cc1cccc(C[n+]2ccccc2N)c1` is reported as 524 µM (cell growth or viability, MTT; 24 h).
The IC50 of `Cc1ccc(C(C)C)cc1.O=C(N=P12CN3CN(CN(C3)C1)C2)c1[c-]cccc1.[Cl-].[Ru+2]` is reported as 75.4 µM (cell growth or viability, MTT; 24 h).
With `Cc1cc(C)c([N+]#[C][Pt-]([Cl])([Cl])=[C](Nc2cccc(CN[C](Nc3c(C)cc(C)cc3C)=[Au][Cl])c2)Nc2c(C)cc(C)cc2C)c(C)c1` the IC50 was over 100 µM (cell growth or viability).
`C[C@@H]1CC[C@@H]([C@](O)(COCc2ccccc2)Cn2cnc3ccccc32)[C@H](OCc2ccccc2)C1` has an IC50 of 5 µM (cell growth or viability, MTT; 72 h).
For `CC(=O)[C@@H]1CCCN1C(=O)[C@@H]1CCCN1C(=O)[C@H](Cc1ccccc1)NC(=O)OC(C)(C)C`, the IC50 was 55 µM (cell growth or viability, SRB).
For `O=C(O)CNc1nc(NNC(=O)c2ccc(Nc3nc(Nc4ccc(C(=O)NNc5nc(NCC(=O)O)nc(N6CCOCC6)n5)cc4)nc(Nc4ccc(C(=O)NNc5nc(NCC(=O)O)nc(N6CCOCC6)n5)cc4)n3)cc2)nc(N2CCOCC2)n1`, the IC50 was 0.0837 µM (cell growth or viability, MTT; 72 h).
`C[C@]12CC/C(=N/O)C=C1CCC1C2CC[C@]2(C)/C(=C/c3ccccn3)CCC12` (stereo partly shown) has an IC50 of 5.2 µM (cell growth or viability, MTT; 72 h).
The IC50 of `O=C(/C=C/c1ccccc1)c1ccc(OCc2cn(CCN3C(=O)c4cccc5cccc(c45)C3=O)nn2)cc1` is reported as over 100 µM (cell growth or viability, MTT; 24 h).
`CN[C@@H](C)C(=O)N[C@H]1CN(C(=O)Cc2ccccc2)CC[C@H]2CC[C@@H](C(=O)NCc3ccc(C(N)=O)cc3)N2C1=O` has an IC50 of over 10 µM (cell growth or viability; 96 h).
For `COc1ccc(/C=C/C(=O)/C=C/c2cn(-c3ccccc3)nc2C(=O)O)cc1OC`, the IC50 was 19.3 ± 2.61 µM (cell growth; 72 h).
The IC50 of `CC(=O)OC[C@H]1O[C@@H](Oc2ccc(C#[C][Pt+])cc2)[C@H](OC(C)=O)[C@@H](OC(C)=O)[C@@H]1OC(C)=O.O=S(=O)([O-])C(F)(F)F.c1ccc(-c2cccc(-c3ccccn3)n2)nc1` is reported as 48.4 µM (cell growth or viability; 72 h).
For `C=CCc1ccc(OC(C)=O)c(OC)c1`, the IC50 was over 50 µM (MTT; 24 h).
With `C#CCOC(=O)C(CC)C1CCC(C)C(C(C)C(O)C(C)C(=O)C(CC)C2OC3(C=CC(O)C4(CCC(C)(C5CCC(O)(CC)C(C)O5)O4)O3)C(C)CC2C)O1` (stereo not shown) the IC50 was over 10 µM (cell growth or viability, MTT; 72 h).
`Cc1cc(C#N)cc(C)c1Oc1cc(Nc2ccc(C#N)cn2)nc2ccncc12` has an IC50 of over 127 µM (48 h).
The IC50 of `Cc1cc(-c2ccccc2)c2ccc3c(-c4ccccc4)cc(C)[n+]4c3c2[n+]1[Re-2]4(=[C]=O)(=[C]=O)(=[C]=O)[O]S(=O)(=O)c1cccc2ccccc12` is reported as 0.716 µM (cell growth or viability, resazurin; 72 h).
The IC50 of `CCn1[c]([Au-][Cl])[n+](CC)c2ccc(C(=O)OC)cc21` is reported as 9.5 µM (cell growth or viability, crystal violet; 96 h).
The IC50 of `Cc1cc(C=O)cc(C)c1Oc1cc(Nc2ccc(C#N)cn2)nc2ccncc12` is reported as 113 ± 6.2 µM (48 h).
`COc1cccc(CNC[C@](O)(COCc2ccccc2)[C@@H]2CC[C@@H](C)C[C@H]2OCc2ccccc2)c1` has an IC50 of 1.9 µM (cell growth or viability, MTT; 72 h).
The IC50 of `CN(C)C1=[S+][Au-2]2([S]1)[c]1ccccc1-c1cccc[n+]12.F[P-](F)(F)(F)(F)F` (stereo not shown) is reported as 0.35 µM (cell growth or viability, MTT; 72 h).
For `c1ccc(-c2nn(-c3nc4ccccc4s3)[n+](-c3ccccc3)n2)cc1`, the IC50 was 21 µM (cell growth or viability, resazurin; 72 h).
For `Cc1cc(C)c([N+]#[C][Pt-]([Cl])([Cl])=[C](Nc2cccc(CN[C](NC(C)(C)C)=[Au][Cl])c2)Nc2c(C)cc(C)cc2C)c(C)c1`, the IC50 was over 100 µM (cell growth or viability).
`CCc1c(C)c2ccc(OC(C)C)c(C)c2oc1=O` has an IC50 of over 50 µM (cell growth or viability, MTT).
For `Oc1cc2c3c(c1)COc1cc(O)cc(c1-3)CC2`, the IC50 was 48.6 µM (cell growth or viability, MTT; 48 h).
`CC12CCC3c4ccc(OCCOc5no[n+]([O-])c5S(=O)(=O)c5ccccc5)cc4CCC3C1CCC2=O` (stereo not shown) has an IC50 of 0.311 µM (cell growth or viability, MTT; 48 h).
The IC50 of `COc1cc2c(=O)c(-c3ccc4c(c3)OCO4)coc2c2c1OC(C)(C)C=C2` is reported as 12.9 µM (cell growth or viability, MTT; 72 h).
For `Cc1ccccc1[N]1c2ncccc2N=Cc2cc(Br)ccc2[O][Pd]1[CH2]C#N`, the IC50 was 29.8 µM (cell growth or viability, MTT; 48 h).
`COc1cc2c(cc1Oc1no[n+]([O-])c1S(=O)(=O)c1ccccc1)CCC1C2CCC2(C)C(O)CCC12` (stereo not shown) has an IC50 of 0.0384 µM (cell growth or viability, MTT; 48 h).

Repeated from above:
`CC12CCC3c4ccc(OCCOc5no[n+]([O-])c5S(=O)(=O)c5ccccc5)cc4CCC3C1CCC2=O` (stereo not shown) has an IC50 of 0.311 µM (cell growth or viability, MTT; 48 h).
The IC50 of `COc1cc2c(=O)c(-c3ccc4c(c3)OCO4)coc2c2c1OC(C)(C)C=C2` is reported as 12.9 µM (cell growth or viability, MTT; 72 h).
For `Cc1ccccc1[N]1c2ncccc2N=Cc2cc(Br)ccc2[O][Pd]1[CH2]C#N`, the IC50 was 29.8 µM (cell growth or viability, MTT; 48 h).
`COc1cc2c(cc1Oc1no[n+]([O-])c1S(=O)(=O)c1ccccc1)CCC1C2CCC2(C)C(O)CCC12` (stereo not shown) has an IC50 of 0.0384 µM (cell growth or viability, MTT; 48 h).
